Measurements pooled from the literature.
Lines come from different studies, so protocols differ. ± marks the error that the study gave.
TNKS2: Poly [ADP-ribose] polymerase tankyrase-2 (TNKS2, Homo sapiens, UniProt Q9H2K2)
DRD3: D(3) dopamine receptor (DRD3, Homo sapiens, UniProt P35462)

CCCCCn1nnc2c3ccccc3c(=O)[nH]c21 gave an IC50 of 0.263 µM (TNKS2; inhibitor).
For C=CC(=O)c1ccc2ccccc2c1, the IC50 was over 20 µM (F13A1 (Homo sapiens, UniProt P00488); crosslinking activity; with: DTT).
The IC50 of CCc1ccc(Cn2nnc3c4ccc(F)cc4c(=O)[nH]c32)cc1 is reported as 0.0288 µM (TNKS2).
O=C(O)CC(O)(CC(=O)O)C(=O)O has an IC50 of over 1000 µM (HIF1AN (Homo sapiens, UniProt Q9NWT6, E105A); enzyme activity, inhibitor; pH 7).
C[C@@H](CC(=O)N1CCCC1)NC(=O)CCS(=O)(=O)Nc1ccc(C(F)(F)F)c(Cl)c1 has an IC50 of over 100 µM (DRD3; β-arrestin recruitment, antagonist, PathHunter; with: dopamine EC80).
C[C@]12CC[C@@H]3c4ccc(O)cc4C[C@@H](CCCCCCCCC[S+]([O-])CCCC(F)(F)C(F)(F)F)[C@H]3[C@@H]1CC[C@@H]2O (stereo partly drawn) gave an IC50 of 0.284 µM (PGR (Homo sapiens, UniProt P06401); PR receptor activity, antagonist, cell-based).
With CC[C@@H]1[C@H](F)C(=O)N[C@@H]1COc1nccc2cc(C(N)=O)c(OC)cc12 the IC50 was over 5 µM (MAP2K4 (Homo sapiens, UniProt P45985); ATP-site probe binding, ActivX profiling; THP-1 cell lysate; Lys2 site).
CC(C)C(=O)OCC(=O)[C@@]12O[C@H](C3CCCCC3)O[C@@H]1C[C@H]1[C@@H]3CCC4=CC(=O)C=C[C@]4(C)[C@H]3[C@@H](O)C[C@@]12C has an IC50 of 0.44 ± 0.04 µM (Nuclear receptor ROR-gamma, RORγt ligand-binding domain (RORC, Homo sapiens, UniProt P51449); co-activator peptide binding, inhibitor, HTRF; 2 h, RORγt LBD 100 nM, with: SRC1-2 peptide 100 nM).
With CC(C)(C)OC(=O)N1CCN(Cc2ccn(Cc3ccc(Cl)cc3)c(=O)c2O)CC1 the IC50 was 7.46 µM (HIF1AN (Homo sapiens, UniProt Q9NWT6); enzyme activity, inhibitor, HTRF; with: Fe(II) 5 µM).
With CC(C)Oc1c(NC(=O)c2ccc(N3C(=O)C[C@H](NC(=O)c4cc(F)c(/N=N/c5c(F)cccc5F)c(F)c4)C3=O)cc2)ccc(C(=O)N/N=C/c2c(Cl)cncc2Cl)c1O the IC50 was over 25 µM (DNA gyrase (gyrA/gyrB, Escherichia coli, UniProt P0AES4+P0AES6); DNA supercoiling, inhibitor; 30 min, 37 °C, after 1 h irradiation at 365 nm).
The IC50 of Cc1nn(-c2nc3ccccc3s2)c(O)c1C(c1ccccc1C(=O)O)c1c(C)nn(-c2nc3ccccc3s2)c1O is reported as 6.07 µM (CGAS (Homo sapiens, UniProt Q8N884); enzyme activity, pyrophosphatase-coupled; mean of 3 experiments).
O=c1[nH]c2c(nnn2Cc2ccccc2)c2ccc(F)cc12 has an IC50 of 0.0813 µM (TNKS2; inhibitor).
For CC(=O)OC1CC2CCC1(C)C2(C)C (stereo not drawn), the IC50 was over 30000 µg/mL (tyrosinase; monophenolase activity, inhibitor; pH 6.8, 37 °C, with: L-tyrosine).
For Cc1[nH]c(C)c(S(=O)(=O)N2CCC(F)(F)C2)c1S(=O)(=O)N1CCC(F)(F)C1, the IC50 was over 100 µM (DRD3; β-arrestin recruitment, antagonist, PathHunter; with: dopamine EC80).
The IC50 of Cc1ccc(Cn2nnc3c4ccc(F)cc4c(=O)[nH]c32)cc1 is reported as 0.0339 µM (TNKS2; inhibitor).
With O=C(NO)c1cncc(OS(=O)(=O)Oc2ccc(C(F)(F)F)cc2)c1 the IC50 was 4.26 µM (Histone deacetylase 3, with NCoR2 DAD (HDAC3, Homo sapiens, UniProt O15379); enzyme activity, inhibitor, fluorogenic; with: substrate 20 µM).
O=c1[nH]c2c(nnn2Cc2c(F)c(F)c(F)c(F)c2F)c2ccc(F)cc12 has an IC50 of 0.0661 µM (TNKS2; ADP-ribosyltransferase activity, inhibitor, NAD+ consumption fluorescence).
The IC50 of Cc1[nH]cc(S(=O)(=O)Nc2ccc(C(F)(F)F)c(Cl)c2)c1C(=O)N1CCC(F)(F)C1 is reported as over 100 µM (DRD3; Go activation, antagonist, BRET; with: dopamine).
The IC50 of N#Cc1nc2c(nc1C#N)-c1ccc(Cl)cc1C2=O is reported as 3.93 µM (OTUB1 (Homo sapiens, UniProt Q96FW1); deubiquitinase activity, inhibitor, MALDI-TOF DUB; 30 °C, 35 min pre-incubation).
For Cc1cnc(NS(=O)(=O)c2c(C)[nH]c(C)c2C(=O)N2CCC(F)(F)C2)cc1Cl, the IC50 was over 100 µM (DRD3; Go activation, antagonist, BRET; with: dopamine).
O=C(N/N=C/c1ccc(C(F)(F)F)nc1)c1cc2c(s1)CCCC2 gave an IC50 of 51.2 ± 3.1 µM (dxs (Deinococcus radiodurans, UniProt Q9RUB5); inhibitor).
O=C(O)CC(=O)C(=O)O has an IC50 of over 1000 µM (HIF1AN (Homo sapiens, UniProt Q9NWT6, Q147A); enzyme activity, inhibitor; pH 7).
Cc1ccc(NS(=O)(=O)c2c(C)[nH]c(C)c2C(=O)N2CC(F)(F)C(F)(F)C2)cc1Cl has an IC50 of over 100 µM (DRD3; Go activation, antagonist, BRET; with: dopamine).
For O=P(O)(O)Oc1cccc(OP(=O)(O)O)c1OP(=O)(O)O, the IC50 was over 1000 µM (INPPL1 (Homo sapiens, UniProt O15357); enzyme activity, inhibitor, malachite green phosphate; 5 min, 30 °C, His-tagged enzyme, with: Ins(1,3,4,5)P4 100 µM).
With CCCN(CCC)C(=O)c1c(C)[nH]c(C)c1S(=O)(=O)Nc1ccc(C(F)(F)F)c(Cl)c1 the IC50 was over 100 µM (DRD3; β-arrestin recruitment, antagonist, PathHunter; with: dopamine EC80).
With CC(C)C[C@H](N)C(=O)N[C@@H](C)C(=O)N[C@@H](CCCCN)C(=O)N[C@H](C(=O)N[C@@H](CCCCN)C(=O)N[C@@H](CCCNC(=N)N)C(=O)N[C@@H](CCCCN)C(=O)N[C@@H](CCCNC(=N)N)C(=O)N[C@@H](CCCCN)C(=O)N[C@@H](CCCCN)C(=O)O)[C@@H](C)O the IC50 was 17 µM (Coagulation factor V, activated factor Va (F5, Homo sapiens, UniProt P12259); prothrombinase activity, inhibitor).
Cc1[nH]c(C)c(S(=O)(=O)Nc2ccc(C(F)(F)F)c(Cl)c2)c1C(=O)N(C)Cc1ccccc1 gave an IC50 of over 100 µM (DRD3; β-arrestin recruitment, antagonist, PathHunter; with: dopamine EC80).
For C[C@@H]1O[C@@H](Oc2c(-c3cc(O)c(O)c(O)c3)oc3cc(O)cc(O)c3c2=O)[C@H](O)[C@H](O)[C@H]1O, the IC50 was 133 ± 5.94 µg/mL (tyrosinase; enzyme activity, inhibitor; with: L-tyrosine).
For Cc1[nH]c(C)c(S(=O)(=O)N2CCC(F)(F)C2)c1C(=O)Nc1ccc(C(F)(F)F)c(Cl)c1, the IC50 was over 100 µM (DRD3; Go activation, antagonist, BRET; with: dopamine).
CN1CCN(c2ccc(Nc3ncc4cc(C#N)c(=O)n(C5CCCC5)c4n3)cc2)CC1 gave an IC50 of 3.95 µM (Serine/threonine-protein kinase Sgk1, Δ1-59 (SGK1, Homo sapiens, UniProt O00141, S422D)).

Excerpt of the above:
With CC[C@@H]1[C@H](F)C(=O)N[C@@H]1COc1nccc2cc(C(N)=O)c(OC)cc12 the IC50 was over 5 µM (MAP2K4 (Homo sapiens, UniProt P45985); ATP-site probe binding, ActivX profiling; THP-1 cell lysate; Lys2 site).
With O=C(NO)c1cncc(OS(=O)(=O)Oc2ccc(C(F)(F)F)cc2)c1 the IC50 was 4.26 µM (Histone deacetylase 3, with NCoR2 DAD (HDAC3, Homo sapiens, UniProt O15379); enzyme activity, inhibitor, fluorogenic; with: substrate 20 µM).
Cc1[nH]c(C)c(S(=O)(=O)Nc2ccc(C(F)(F)F)c(Cl)c2)c1C(=O)N(C)Cc1ccccc1 gave an IC50 of over 100 µM (DRD3; β-arrestin recruitment, antagonist, PathHunter; with: dopamine EC80).
The IC50 of Cc1ccc(Cn2nnc3c4ccc(F)cc4c(=O)[nH]c32)cc1 is reported as 0.0339 µM (TNKS2; inhibitor).
